# Assay results from different studies.
# ± marks the error that the study gave.
Compound,test system,conditions,Cmax
[2H]c1nc([2H])c(-c2nc([2H])n3c2C([2H])([2H])N=C(c2ccccn2)c2cc(C#C)ccc2-3)o1,"Sprague Dawley rat, brain","oral, 2 mg/kg, cassette dosing",334 nM
COc1cccc2c1C(=O)c1c(O)c3c(c(O)c1C2=O)CC(O)(C(=O)CO)CC3OC1CC(NC(=O)OC2C=CCCC(C)(C(=O)NCC(=O)O)CC2)C(O)C(C)O1 (centres unmarked),"Sprague Dawley rats male, plasma","intravenous, 21.5 mg/kg/day doxorubicin equivalent, day 3",1980 ± 427 ng/mL
COCC12CCC(OC)C34C5CC6(O)C(OC)C(O)C(O)(C5C6OC(=O)c5ccccc5)C(C(OC)C13)C4N(C)C2 (centres unmarked),"Sprague-Dawley rat, plasma","oral, dose not given, in PCW extract",152 ± 22 ng/mL
CC(C)N1CCCCC1C(=O)NC(Cc1ccc(-c2ccccc2)cc1)B(O)O (centres unmarked),"male Sprague-Dawley rats, plasma","intravenous, 1 mg/kg, citrate ester",2660 nM
O=C(c1cc(Cc2n[nH]c(=O)c3ccccc23)ccc1F)N1CC(CNC2CC2)C1,female Wistar Han rat,"oral, 60 mg/kg, day 28",8120 ng/mL
CN1CCCCC1C(=O)NC(Cc1ccc(-c2ccccc2)cc1)B(O)O (centres unmarked),"male Sprague-Dawley rats, plasma","intravenous, 1 mg/kg, citrate ester",1710 nM
CCN1CC2(COC)C(O)CC(OC)C34C5CC6(O)C(OC)C(O)C(O)(C5C6OC(=O)c5ccccc5)C(C(OC)C23)C14 (centres unmarked),"Sprague-Dawley rat, plasma","oral, dose not given, in PCW extract",59.9 ± 5.59 ng/mL
O=C(O)/C=C\c1ccc2occc2c1O[C@@H]1O[C@H](CO)[C@@H](O)[C@H](O)[C@H]1O,"rat, plasma","oral, 217 mg/kg Pc extract, dosed as Pc extract",289 ± 132 ng/mL

# Excerpt of the above:
Compound,test system,conditions,Cmax
[2H]c1nc([2H])c(-c2nc([2H])n3c2C([2H])([2H])N=C(c2ccccn2)c2cc(C#C)ccc2-3)o1,"Sprague Dawley rat, brain","oral, 2 mg/kg, cassette dosing",334 nM
